# Measured values pooled from the literature.
# Compare with care: the assays were run in different laboratories. Several values in a cell are separate wells, animals, samples, runs or records. ± marks the error that the study gave.
# PAL1: PAL1 (Petroselinum crispum, UniProt P24481)
# Oprd1: Delta-type opioid receptor (Oprd1, Rattus norvegicus, UniProt P33533)
# Chain of UniProt Q00987 (whole entry, looked up): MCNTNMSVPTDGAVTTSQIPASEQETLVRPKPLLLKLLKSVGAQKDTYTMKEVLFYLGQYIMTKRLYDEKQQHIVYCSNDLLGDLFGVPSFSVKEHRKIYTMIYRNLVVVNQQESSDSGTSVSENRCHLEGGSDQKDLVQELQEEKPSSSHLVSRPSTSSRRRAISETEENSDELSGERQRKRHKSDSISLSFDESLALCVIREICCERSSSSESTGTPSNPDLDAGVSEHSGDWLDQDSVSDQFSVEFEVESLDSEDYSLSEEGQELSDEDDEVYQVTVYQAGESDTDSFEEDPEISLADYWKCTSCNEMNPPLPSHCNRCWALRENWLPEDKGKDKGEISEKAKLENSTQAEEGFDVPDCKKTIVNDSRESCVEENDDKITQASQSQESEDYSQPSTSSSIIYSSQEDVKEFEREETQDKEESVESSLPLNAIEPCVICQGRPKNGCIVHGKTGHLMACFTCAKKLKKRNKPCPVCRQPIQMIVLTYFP
# Chain of UniProt P33533 (whole entry, looked up): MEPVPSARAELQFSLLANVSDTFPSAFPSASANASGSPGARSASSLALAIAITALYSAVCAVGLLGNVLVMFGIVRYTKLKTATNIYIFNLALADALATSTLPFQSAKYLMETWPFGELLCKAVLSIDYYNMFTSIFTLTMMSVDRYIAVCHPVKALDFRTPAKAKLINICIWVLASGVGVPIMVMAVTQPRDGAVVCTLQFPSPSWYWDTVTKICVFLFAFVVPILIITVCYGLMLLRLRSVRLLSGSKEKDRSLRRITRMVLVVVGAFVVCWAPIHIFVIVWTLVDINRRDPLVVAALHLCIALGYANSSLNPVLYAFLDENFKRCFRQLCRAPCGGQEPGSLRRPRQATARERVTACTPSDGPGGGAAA
# Chain of UniProt Q007T0 (whole entry, looked up): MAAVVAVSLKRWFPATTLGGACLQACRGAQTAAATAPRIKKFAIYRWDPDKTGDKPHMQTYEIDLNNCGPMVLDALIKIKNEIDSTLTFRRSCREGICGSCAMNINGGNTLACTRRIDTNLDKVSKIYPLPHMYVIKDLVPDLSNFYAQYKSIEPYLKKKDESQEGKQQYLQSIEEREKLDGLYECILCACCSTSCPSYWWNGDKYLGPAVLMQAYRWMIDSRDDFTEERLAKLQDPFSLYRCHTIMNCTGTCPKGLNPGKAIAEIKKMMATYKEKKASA
# Chain of UniProt D0VWV4 (whole entry, looked up): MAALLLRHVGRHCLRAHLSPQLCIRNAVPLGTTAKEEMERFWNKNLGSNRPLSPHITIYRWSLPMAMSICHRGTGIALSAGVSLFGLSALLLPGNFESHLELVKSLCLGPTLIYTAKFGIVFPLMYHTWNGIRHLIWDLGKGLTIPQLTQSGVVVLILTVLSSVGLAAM
# Chain of UniProt A5GZW8 (whole entry, looked up): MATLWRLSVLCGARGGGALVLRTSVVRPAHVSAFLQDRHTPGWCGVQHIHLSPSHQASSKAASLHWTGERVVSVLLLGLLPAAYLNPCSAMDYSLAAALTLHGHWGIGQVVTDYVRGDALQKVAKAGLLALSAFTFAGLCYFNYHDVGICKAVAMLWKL
# Chain of UniProt Q9UH17 (whole entry, looked up): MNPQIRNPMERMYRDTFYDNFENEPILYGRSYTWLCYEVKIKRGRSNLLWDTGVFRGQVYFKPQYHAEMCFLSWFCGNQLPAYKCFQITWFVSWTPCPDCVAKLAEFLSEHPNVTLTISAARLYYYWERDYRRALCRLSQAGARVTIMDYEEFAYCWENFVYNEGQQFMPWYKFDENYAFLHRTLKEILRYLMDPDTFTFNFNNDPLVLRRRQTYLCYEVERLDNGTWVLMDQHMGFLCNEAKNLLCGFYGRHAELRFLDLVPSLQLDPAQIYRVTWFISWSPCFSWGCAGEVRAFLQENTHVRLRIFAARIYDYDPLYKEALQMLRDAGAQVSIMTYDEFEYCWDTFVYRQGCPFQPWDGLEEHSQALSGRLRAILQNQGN
# Chain of UniProt Q9ULC6 (whole entry, looked up): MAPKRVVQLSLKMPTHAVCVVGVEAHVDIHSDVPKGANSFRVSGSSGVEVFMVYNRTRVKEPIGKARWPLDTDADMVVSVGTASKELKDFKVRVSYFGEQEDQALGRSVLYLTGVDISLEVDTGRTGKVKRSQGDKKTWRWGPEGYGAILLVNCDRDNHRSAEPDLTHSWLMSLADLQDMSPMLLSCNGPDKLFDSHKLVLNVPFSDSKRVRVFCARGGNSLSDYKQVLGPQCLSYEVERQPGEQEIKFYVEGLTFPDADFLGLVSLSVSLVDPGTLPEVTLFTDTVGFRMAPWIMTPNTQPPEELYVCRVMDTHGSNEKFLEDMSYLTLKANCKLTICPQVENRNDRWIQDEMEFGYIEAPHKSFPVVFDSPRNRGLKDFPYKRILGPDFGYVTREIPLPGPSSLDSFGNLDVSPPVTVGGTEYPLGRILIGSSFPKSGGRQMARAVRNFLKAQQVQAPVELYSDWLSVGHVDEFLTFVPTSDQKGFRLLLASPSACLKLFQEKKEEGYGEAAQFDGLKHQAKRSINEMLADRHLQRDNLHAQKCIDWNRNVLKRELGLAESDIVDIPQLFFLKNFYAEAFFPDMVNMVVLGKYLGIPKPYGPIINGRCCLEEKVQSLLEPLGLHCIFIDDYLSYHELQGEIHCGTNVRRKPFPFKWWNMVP
# Chain of UniProt Q15303 (whole entry, looked up): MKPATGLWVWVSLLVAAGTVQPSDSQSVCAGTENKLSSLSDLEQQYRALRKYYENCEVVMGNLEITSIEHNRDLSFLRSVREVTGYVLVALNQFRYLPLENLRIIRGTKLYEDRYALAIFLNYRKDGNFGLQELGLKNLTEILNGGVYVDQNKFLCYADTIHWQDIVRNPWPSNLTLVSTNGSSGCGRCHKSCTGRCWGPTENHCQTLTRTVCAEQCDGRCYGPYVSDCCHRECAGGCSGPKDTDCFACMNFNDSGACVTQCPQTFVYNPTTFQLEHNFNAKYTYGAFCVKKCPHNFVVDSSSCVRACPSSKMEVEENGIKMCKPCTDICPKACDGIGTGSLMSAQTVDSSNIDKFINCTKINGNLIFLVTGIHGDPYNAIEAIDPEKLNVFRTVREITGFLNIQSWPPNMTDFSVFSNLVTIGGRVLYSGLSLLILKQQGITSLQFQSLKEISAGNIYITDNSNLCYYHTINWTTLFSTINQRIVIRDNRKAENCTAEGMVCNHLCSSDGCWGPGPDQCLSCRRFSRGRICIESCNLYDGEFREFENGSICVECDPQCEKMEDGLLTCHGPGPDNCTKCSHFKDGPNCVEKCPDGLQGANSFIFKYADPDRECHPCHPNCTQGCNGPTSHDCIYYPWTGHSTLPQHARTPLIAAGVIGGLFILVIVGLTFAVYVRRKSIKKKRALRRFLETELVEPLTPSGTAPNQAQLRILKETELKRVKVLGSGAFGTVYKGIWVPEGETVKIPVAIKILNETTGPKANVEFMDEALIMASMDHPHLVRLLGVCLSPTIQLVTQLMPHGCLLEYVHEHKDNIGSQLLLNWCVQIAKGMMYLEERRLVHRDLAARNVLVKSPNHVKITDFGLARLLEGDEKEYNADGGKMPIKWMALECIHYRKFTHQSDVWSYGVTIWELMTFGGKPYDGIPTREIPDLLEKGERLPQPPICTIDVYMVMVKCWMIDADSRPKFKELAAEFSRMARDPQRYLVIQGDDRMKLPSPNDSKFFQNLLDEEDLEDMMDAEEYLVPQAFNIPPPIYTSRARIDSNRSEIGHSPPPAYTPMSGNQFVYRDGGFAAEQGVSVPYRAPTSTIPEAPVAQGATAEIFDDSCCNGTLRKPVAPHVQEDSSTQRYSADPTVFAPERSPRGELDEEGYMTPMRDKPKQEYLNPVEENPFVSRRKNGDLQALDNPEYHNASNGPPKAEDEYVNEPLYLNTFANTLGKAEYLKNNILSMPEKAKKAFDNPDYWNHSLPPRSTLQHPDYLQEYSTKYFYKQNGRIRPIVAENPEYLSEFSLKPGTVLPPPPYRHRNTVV
# Chain of UniProt Q13523 (whole entry, looked up): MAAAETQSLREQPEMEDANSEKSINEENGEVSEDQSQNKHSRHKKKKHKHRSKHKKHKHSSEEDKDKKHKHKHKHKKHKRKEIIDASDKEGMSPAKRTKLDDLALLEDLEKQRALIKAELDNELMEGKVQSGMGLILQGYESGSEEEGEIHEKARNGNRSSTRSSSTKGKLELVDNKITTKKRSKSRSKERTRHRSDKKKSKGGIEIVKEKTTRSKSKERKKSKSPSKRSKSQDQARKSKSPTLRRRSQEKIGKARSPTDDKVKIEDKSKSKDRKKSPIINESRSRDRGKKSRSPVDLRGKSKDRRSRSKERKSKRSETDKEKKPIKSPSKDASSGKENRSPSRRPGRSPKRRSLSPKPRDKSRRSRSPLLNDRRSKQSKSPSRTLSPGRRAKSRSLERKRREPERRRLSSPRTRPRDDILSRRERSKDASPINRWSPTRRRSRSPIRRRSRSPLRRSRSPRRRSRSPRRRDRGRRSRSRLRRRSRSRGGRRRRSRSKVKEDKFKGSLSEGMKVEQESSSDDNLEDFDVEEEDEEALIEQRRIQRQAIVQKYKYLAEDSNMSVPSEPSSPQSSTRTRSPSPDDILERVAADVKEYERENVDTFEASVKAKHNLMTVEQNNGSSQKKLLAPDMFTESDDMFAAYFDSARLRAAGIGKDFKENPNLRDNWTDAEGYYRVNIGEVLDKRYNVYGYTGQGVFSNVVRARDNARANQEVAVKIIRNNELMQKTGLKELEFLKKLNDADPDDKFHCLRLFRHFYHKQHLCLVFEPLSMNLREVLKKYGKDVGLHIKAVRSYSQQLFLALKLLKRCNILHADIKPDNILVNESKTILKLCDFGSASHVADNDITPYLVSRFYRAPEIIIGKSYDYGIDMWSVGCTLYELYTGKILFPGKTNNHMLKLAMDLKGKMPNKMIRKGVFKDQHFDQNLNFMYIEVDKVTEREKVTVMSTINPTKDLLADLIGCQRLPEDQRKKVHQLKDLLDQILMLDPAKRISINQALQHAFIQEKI
SMILES,target or system,assay,system,conditions,how to read,quantity,result
CN(C(=O)[C@@H]1CSCC(=O)N[C@@H](Cc2ccccc2)C(=O)N[C@@H](CO)C(=O)N[C@@H](Cc2ccccc2)C(=O)N[C@@H](Cc2ccc(O)cc2)C(=O)N[C@@H](Cc2ccc(O)cc2)C(=O)N[C@@H](Cc2c[nH]cn2)C(=O)N[C@@H](Cc2c[nH]c3ccccc23)C(=O)N1)[C@@H](Cc1ccccc1)C(N)=O,"STING1 (Homo sapiens, UniProt Q86WV6, H232R)","thermal stability, DSF",,100 µM,,ΔTm,8.48 °C
CNC(=O)C[C@H](Cc1ccc(C#N)cc1)NC(=O)c1cc(-c2ccc(CN[C@H](C)c3ccc(C)cc3)o2)ccc1Cl,"PRPF4B (Homo sapiens, UniProt Q13523)","enzyme activity, inhibitor",,1 µM,,activity vs control,90%
COc1c(N2CC3CCCNC3C2)c(F)cc2c(=O)c(C(=O)OCc3ccc([N+](=O)[O-])cc3)cn(C3CC3)c12 (stereo not drawn),"nfsB (Escherichia coli K-12, UniProt P38489)",substrate,,added: NADH 100 µM,,initial rate,0.15 ± 0.005 µM/min
COCC1CCCCN1C(=O)n1cc(C(O)(c2ccccc2)c2ccccc2)nn1 (stereo not drawn),"S-formylglutathione hydrolase (Esd, Mus musculus, UniProt Q9R0P3)","enzyme activity, inhibitor, competitive ABPP-SILAC, refers to: Esd",mouse T-cells,"concentration not given, 4 h, treated in situ",reference: DMSO,activity ratio,1.29
Cc1ccc(NS(=O)(=O)c2c(C(=O)N3CCCCCC3)c(C)n(C)c2C)c(Cl)c1,HaCaT,,,"0.412 µM, 60 h",,viability,97.4% and 98.5%
CCOC(=O)[C@@H]1Cc2c(cc([N+](=O)[O-])cc2[N+](=O)[O-])[C@H](O)[C@]12C(=O)Nc1ccc(Br)cc12,"ERBB4 (Homo sapiens, UniProt Q15303)","binding, competition with immobilised ligand",,0.1 µM,,remaining binding,58%
O=C1NC2(CC2)COc2ncc(F)cc2[C@H]2COCCN2c2ccn3ncc1c3n2,,,"Sprague-Dawley rat, male, serum","oral, 5 mg/kg/day, end of treatment, 4-week subacute toxicity",,serum triglycerides,0.35 ± 0.13 mmol/L
N[C@@H](Cc1ccccc1)P(=O)(O)O,PAL1,"L-Phe deamination, inhibitor, UV steady-state kinetics",,"200 µM, added: L-Phe 5 mM",,reaction rate reduction,35%
C=CC(=O)Nc1cc(-c2ccc(C(=O)N3CCCC(O)(CC)C3)cc2)ccc1F (stereo not drawn),"DNA dC->dU-editing enzyme APOBEC-3B, C-terminal domain (Homo sapiens, UniProt Q9UH17)","covalent adduct, intact protein MS",,"125 µM, 3 h, 5-fold molar excess",,unmodified protein,65% and 63%
CC(C)CC(O)(CC(C)C)c1cn(C(=O)N2CCCC2)nn1,"Lipe (Mus musculus, UniProt P54310)","enzyme activity, inhibitor","mouse, brain","i.p., 0.8 mg/kg, 4 h, protein level",reference: vehicle,ratio of ratios,0.52
CC[C@H](C)[C@H](NC(=O)[C@H](CO)NC(=O)[C@H](Cc1ccc(O)cc1)NC(=O)[C@H](Cc1ccc(O)cc1)NC(=O)[C@H](CC(N)=O)NC(=O)CNC(=O)[C@H](CO)NC(=O)[C@H](Cc1ccc(O)cc1)NC(=O)[C@H](CO)NC(=O)[C@H](CO)NC(=O)[C@H](CC(N)=O)NC(=O)COCCOCCNC(=O)CN1CCN(CC(=O)O)CCN(CC(=O)O)CCN(CC(=O)O)CC1)C(=O)N[C@@H](CC(C)C)C(N)=O [copper-64 labelled],,dynamic PET,"mouse, tamoxifen-induced PDAC, tumor","intravenous, 0.1 µg/mouse, 4.5 min",,tumour uptake,14.6 %ID/mL
CN(C)CCCSC(=S)N1CCN(C(=O)/C=C/c2coc3ccccc3c2=O)CC1,"Nucleoprotein (N, Tomato spotted wilt virus, UniProt P25999, R94A/Y184A)","binding, microscale thermophoresis",,1.953 µM,dose series,MST response,0.683 a.u.
COc1ccccc1-c1n[nH]c2nc(N[C@H]3CC[C@H](NS(=O)(=O)CC(C)C)CC3)ncc12,,"bead binding, competition bead pull-down, refers to: LINJ.05.0550",Leishmania donovani extract,10 µM,reference: vehicle,relative abundance,0.67
O=C(CF)N[C@H]1[C@H]([C@H](O)[C@H](O)CNC(=O)c2ccc(Oc3ccccc3)cc2)O[C@@](OCc2cccc(Cl)c2Cl)(C(=O)O)C[C@@H]1O,"CD22 (Homo sapiens, UniProt P20273)",isothermal titration calorimetry,,concentration not given,,binding stoichiometry,0.9 ± 0.07
CC(C)[C@H]1NC(=O)C[C@H]2/C=C/CCSSC[C@@H](NC1=O)C(=O)N[C@H](Cc1cccc3ccccc13)C(=O)NCC(=O)O2,"IRAK1 (Homo sapiens, UniProt P51617)","enzyme activity, inhibitor",,10 µM,,inhibition,-2.8%
Cc1ncsc1-c1ccc([C@H](C)NC(=O)[C@@H]2C[C@@H](O)CN2C(=O)[C@@H](NC(=O)CN2CCC(CN3CCN(CCC(=O)N4CCN(c5ncc(-c6cc(NC(=O)c7ccc(F)cc7C(F)(F)F)c(N7C[C@@H](C)N(C)[C@@H](C)C7)cc6F)cn5)CC4)CC3)CC2)C(C)(C)C)cc1,"WD repeat protein WDS (Spodoptera frugiperda, UniProt A0A2H1VC02)","degrader, targeted LC-MS",Sf9,"concentration not given, added: bortezomib",,protein level,103% and 105% and 107% and 137%
C=C(c1ccccc1)[C@H](N)P(=O)(O)O,PAL1,"L-Phe deamination, inhibitor, UV steady-state kinetics",,"100 µM, added: L-Phe 1 mM",,reaction rate reduction,23%
CS(C)(=O)=Nc1ccc(-c2ccc(-c3nc4cc(O[C@@H]5CO[C@H]6[C@@H]5OC[C@H]6O)[nH]c4cc3F)cc2)cc1,"NMUR2 (Homo sapiens, UniProt Q9GZQ4)","ligand displacement, radioligand",,10 µM,,inhibition,0%
Cc1sc2c(c1C)C(c1ccc(Cl)cc1)=N[C@@H](CC(=O)OC(C)(C)C)c1nnc(C)n1-2,"Bromodomain-containing protein 3, BD2 (BRD3, Homo sapiens, UniProt Q15059)",isothermal titration calorimetry,,"15 °C, reverse titration",,ΔG,-4.93 kcal/mol
C[C@@H](O)[C@@H]1CN([C@@H](CC2CCCCC2)CN2CCC[C@H]2CN2CCNC[C@@H]2Cc2ccc3ccccc3c2)CCN1CCc1ccc(Cl)c(Cl)c1,Oprd1,radioligand binding,rat brain membranes,"500 nM, pH 7.5, 25 °C, added: 2 nM [3H]DPDPE",,remaining binding,87.4%
Nc1ccc(/C=C/C(=O)N2CCc3c(oc4c(-c5ccc(F)cc5)cc(-c5ccc(C(=O)N6CCC(F)(F)CC6)cn5)cc34)C2)cn1,"ALK (Homo sapiens, UniProt Q9UM73)","binding, competition with immobilised ligand",,1 µM,,remaining binding,98%
CC[C@H](C)[C@@H]1NC(=O)[C@H](CC(C)C)NC(=O)CNC(=O)[C@H](CCCNC(=N)N)NC(=O)[C@H](Cc2c[nH]c3ccccc23)NC(=O)[C@H](CCSC)NC(=O)[C@H](CO)NC(=O)[C@H](CCC(=O)O)NC(=O)[C@H](Cc2ccccc2)NC(=O)[C@H](CC(=O)O)NC(=O)[C@H]([C@@H](C)O)NC(=O)CNC(=O)[C@H](CCC(=O)O)NC(=O)[C@H]([C@@H](C)O)NC(=O)CNC(=O)[C@H](CC(=O)O)NC1=O,"MDM2 (Homo sapiens, UniProt Q00987)","MDM2-ligand binding, inhibitor, AlphaLISA competition",,"0.1953 µM, added: GST-tagged MDM2 ligand",lower = stronger inhibition,AlphaLISA signal,8260 a.u. and 7980 a.u. and 7740 a.u.
C#CCCCCOc1ccc2c(c1)CCCN2C(=O)CCl,"CD151 antigen (CD151, Homo sapiens, UniProt P48509)","mass spectrometry profiling, refers to: CD151",H460 cell lysate,"100 µM over 10 µM, UniProt P48509",reference: high over low concentration,reactivity ratio,1.51
COc1ccccc1-c1n[nH]c2nc(NC3CCN(C(=O)Cc4ccc(F)cc4F)CC3)ncc12,,"bead binding, competition bead pull-down, refers to: LINJ.23.0860",Leishmania donovani extract,10 µM,reference: vehicle,relative abundance,0.74
O=C1NC(=O)c2c1c1cc(F)c[n+]3c1c1c2c2cc(O)ccc2[n]1[Ru-4]312([N]=C=S)[S+]3CC[S+]1CC[S+]2CC3 (stereo not drawn),"PRKG1 (Homo sapiens, UniProt Q13976)",enzyme activity,,"100 nM, human enzyme, added: 10 µM ATP",reference: untreated,remaining activity,10%
N[C@H](C(=O)N1CCCC1)C1CCN(c2nccc3c(-c4ncc(Cl)cc4Cl)cccc23)CC1,"PADI1 (Homo sapiens, UniProt Q9ULC6)",enzyme activity,,"0.01573 µM, added: Ca2+ 0.25 mM",,kcat,0.365 s⁻¹ and 0.378 s⁻¹
CC[C@H](C)[C@H](NC(C)=O)C(=O)N[C@@H](CCC(=O)O)C(=O)N1CCC[C@H]1C(=O)NC(CS(=O)(=O)O)P(=O)(Oc1ccccc1)Oc1ccccc1 (stereo partly drawn),"Granzyme B (GZMB, Homo sapiens, UniProt P10144)","enzyme activity, inhibitor, FRET",,,,kinact/KI,419000 M⁻¹ s⁻¹
CC(C)(C)C(=O)OCOP(=O)(OCOC(=O)C(C)(C)C)C1CCCN(O)C1=O (stereo not drawn),NCI-H226,,,,,log LC50,> -4 log M
CON(C(=O)c1cn(C)nc1C(F)F)C(C)Cc1c(Cl)cc(Cl)cc1Cl (stereo not drawn),"SDHD/SDHC/SDHB (Sus scrofa, UniProt A5GZW8+D0VWV4+Q007T0)","enzyme activity, inhibitor, DCIP reduction",pig,"0.3 µM, added: DCIP 120 µM",,reaction velocity,0.0149 µM/s and 0.0147 µM/s
CCCC[C@H]1CNCCN1C[C@@H]1CCCN1C[C@@H](Cc1ccc2ccccc2c1)N1CCN(CCCC2CCCC2)[C@H](Cc2ccc(O)cc2)C1,Oprd1,radioligand binding,rat brain membranes,"500 nM, pH 7.5, 25 °C, added: 2 nM [3H]DPDPE",,remaining binding,78.2%
CC[C@H](C)[C@@H]1NC(=O)[C@H](CC(N)=O)NC(=O)[C@@H]2CCCN2C(=O)[C@@H](NC(=O)[C@H](CC(N)=O)NC(=O)[C@@H](N)CCC(N)=O)COC(=O)CN(CCSC)C(=O)[C@H](Cc2c[nH]c3ccccc23)NC(=O)[C@H](CCC(N)=O)NC(=O)CNC(=O)[C@H](Cc2ccccc2)NC1=O,"Fsr quorum sensing protein (Enterococcus faecalis, UniProt A0ACD6TCR9)",cell-based activity,,concentration not given,,activity,inactive
O=C(N[C@@H]1c2ccccc2C[C@H]1N1CCCC1)c1ccc(-c2ccnc3[nH]ccc23)nc1,"MYLK4 (Homo sapiens, UniProt Q86YV6)","binding, competition with immobilised ligand",,3 µM,,remaining binding,0.3%
Cc1cc(C(=O)Nc2nc3cccc(C)c3n2[C@H]2CCCCN(C(=O)/C=C/CN(C)C)C2)ccn1,Trypanosoma brucei,,"STIB795, mouse acute HAT model","oral, 7.5 mg/kg once daily for 4 days, day 14",reference: mice,survival,16.7%
CN(C)[C@H]1C[C@@]23CC[C@@]4(O2)C(=CC[C@]2(C)[C@@H](c5ccc6ccncc6c5)CC[C@H]24)C=C3[C@@H](O)[C@@H]1O,"SLK (Homo sapiens, UniProt Q9H2G2)","ATP probe labelling, inhibitor, KiNativ profiling",,0.1 µM,,inhibition,11.4%
CCCC[C@H]1CNCCN1C[C@@H]1CCCN1C[C@H](CC1CCCCC1)N1CCN(CCc2ccc(Cl)c(Cl)c2)[C@H]([C@H](C)CC)C1,Oprd1,radioligand binding,rat brain membranes,"500 nM, pH 7.5, 25 °C, added: 2 nM [3H]DPDPE",,remaining binding,94.5%
C[C@]12C(c3cccnc3)=C[C@H]3[C@@H](CCC4=C[C@H](O)CC[C@@]43C)[C@@H]1CC[C@@H]2O,"7-alpha-hydroxycholest-4-en-3-one 12-alpha-hydroxylase (Homo sapiens, UniProt Q9UNU6)",inhibitor,,"80 µM, added: 7α-hydroxycholest-4-en-3-one 0.5 µM",,remaining activity,66.1 ± 1.1%

# For quick reference, copied from above:
SMILES,target or system,assay,system,conditions,how to read,quantity,result
CC[C@H](C)[C@@H]1NC(=O)[C@H](CC(C)C)NC(=O)CNC(=O)[C@H](CCCNC(=N)N)NC(=O)[C@H](Cc2c[nH]c3ccccc23)NC(=O)[C@H](CCSC)NC(=O)[C@H](CO)NC(=O)[C@H](CCC(=O)O)NC(=O)[C@H](Cc2ccccc2)NC(=O)[C@H](CC(=O)O)NC(=O)[C@H]([C@@H](C)O)NC(=O)CNC(=O)[C@H](CCC(=O)O)NC(=O)[C@H]([C@@H](C)O)NC(=O)CNC(=O)[C@H](CC(=O)O)NC1=O,"MDM2 (Homo sapiens, UniProt Q00987)","MDM2-ligand binding, inhibitor, AlphaLISA competition",,"0.1953 µM, added: GST-tagged MDM2 ligand",lower = stronger inhibition,AlphaLISA signal,8260 a.u. and 7980 a.u. and 7740 a.u.
C#CCCCCOc1ccc2c(c1)CCCN2C(=O)CCl,"CD151 antigen (CD151, Homo sapiens, UniProt P48509)","mass spectrometry profiling, refers to: CD151",H460 cell lysate,"100 µM over 10 µM, UniProt P48509",reference: high over low concentration,reactivity ratio,1.51
COc1ccccc1-c1n[nH]c2nc(NC3CCN(C(=O)Cc4ccc(F)cc4F)CC3)ncc12,,"bead binding, competition bead pull-down, refers to: LINJ.23.0860",Leishmania donovani extract,10 µM,reference: vehicle,relative abundance,0.74
O=C1NC(=O)c2c1c1cc(F)c[n+]3c1c1c2c2cc(O)ccc2[n]1[Ru-4]312([N]=C=S)[S+]3CC[S+]1CC[S+]2CC3 (stereo not drawn),"PRKG1 (Homo sapiens, UniProt Q13976)",enzyme activity,,"100 nM, human enzyme, added: 10 µM ATP",reference: untreated,remaining activity,10%
